{"data": "Measurements of several laboratories", "note": "Each line is one published result; not all experiments were run side by side. ± gives the spread as reported."}
{"SMILES": "O=C(c1ccc(F)cc1)C1CCN(C2Cc3c(cccc3OCC[18F])CC2O)CC1 (single isomer, unassigned; (-))", "test system": "Sprague-Dawley rat, male, cerebellum", "setting": "5 min post-injection", "tissue uptake [%ID/g]": 0.593}
{"SMILES": "COc1cc2ncnc(Oc3cccc(N[11C](=O)Nc4cc(C(C)(C)C(F)(F)F)on4)c3)c2cc1OC", "test system": "Balb/c nude mouse, female, A375 melanoma xenograft, kidney", "setting": "6.6 MBq, 60 min", "tissue uptake [%ID/g]": "9.77 ± 0.45"}
{"SMILES": "N=C(N)NCc1ccc(C(=O)NCCCC[C@H](NC(=O)N[C@@H](CCC(=O)O)C(=O)O)C(=O)O)cc1[211At]", "test system": "SCID mouse, PC-3 xenografts, brain", "setting": "21 h", "tissue uptake [%ID/g]": "0.04 ± 0.02"}
{"SMILES": "C=Cc1cc(O)cc2nc(-c3ccc(O)c([76Br])c3)oc12", "test system": "female C57BL/6 mouse, ovaries", "setting": "6 h, high dose", "tissue uptake [%ID/g]": "0.07 ± 0.02"}
{"SMILES": "COc1cc(C(=O)NCCOCCOCCOCCNC(=O)c2ccc([18F])nc2)ccc1NC(=O)C1NC(CC(C)(C)C)C(C#N)(c2ccc(Cl)cc2F)C1c1cccc(Cl)c1F (centres unmarked)", "test system": "athymic male mice, SJSA-1 xenograft, large intestine", "setting": "2 h", "tissue uptake [%ID/g]": "2.13 ± 0.83"}
{"SMILES": "N=C(N)NCc1ccc(C(=O)NCCCC[C@H](NC(=O)CCCCCCC(=O)NCCCC[C@H](NC(=O)N[C@@H](CCC(=O)O)C(=O)O)C(=O)O)C(=O)O)cc1[211At]", "test system": "SCID mouse, PC-3 xenografts, liver", "setting": "21 h", "tissue uptake [%ID/g]": "0.59 ± 0.21"}
{"SMILES": "CN[C@](C)(C[18F])C(=O)O", "test system": "SCID mouse DU-145 xenograft, lung", "setting": "30 min post injection", "tissue uptake [%ID/g]": "3 ± 0.5"}
{"SMILES": "CCCC[C@H](NC(=O)CCOCCOCCNC(=O)CN1CCN(CC(=O)O)CCN(CC(=O)O)CCN(CC(=O)O)CC1)C(=O)N[C@H]1CC(=O)NCCCC[C@@H](C(N)=O)NC(=O)[C@H](Cc2c[nH]c3ccccc23)NC(=O)[C@H](CCCNC(=N)N)NC(=O)[C@@H](Cc2ccccc2)NC(=O)[C@H](Cc2c[nH]cn2)NC1=O [gallium-68 labelled]", "test system": "C57BL/6J mice male B16-F10 tumour, intestine", "setting": "1 h post injection, unblocked", "tissue uptake [%ID/g]": "0.3 ± 0.1"}
{"SMILES": "N=C(N)NCc1ccc(C(=O)NCCCC[C@H](NC(=O)N[C@@H](CCC(=O)O)C(=O)O)C(=O)O)cc1[131I]", "test system": "SCID mouse, PC-3 xenografts, lungs", "setting": "21 h", "tissue uptake [%ID/g]": "0.05 ± 0.01"}
{"SMILES": "CCNc1cc2[o+]c3cc(NCC)c(C)cc3c(-c3ccccc3C(=O)OCCOCC[18F])c2cc1C", "test system": "rat, kidney", "setting": "30 min", "tissue uptake [%ID/g]": "7.9 ± 1.05"}
{"SMILES": "O=C(O)CC[C@H](NC(=O)O[C@@H](CCCCNC(=O)c1ccc([18F])cc1)C(=O)O)C(=O)O", "test system": "mouse, PC-3 PIP/flu xenografts, fat", "setting": "90 min", "tissue uptake [%ID/g]": "0.11 ± 0.06"}
{"note": "Some of these lines once more:"}
{"SMILES": "C=Cc1cc(O)cc2nc(-c3ccc(O)c([76Br])c3)oc12", "test system": "female C57BL/6 mouse, ovaries", "setting": "6 h, high dose", "tissue uptake [%ID/g]": "0.07 ± 0.02"}
{"SMILES": "CCNc1cc2[o+]c3cc(NCC)c(C)cc3c(-c3ccccc3C(=O)OCCOCC[18F])c2cc1C", "test system": "rat, kidney", "setting": "30 min", "tissue uptake [%ID/g]": "7.9 ± 1.05"}
